Experimental data gathered from unrelated publications.
Parts stem from different laboratories: compare values within a part only.
UniProt Q92985, sequence (whole entry, unmodified, looked up): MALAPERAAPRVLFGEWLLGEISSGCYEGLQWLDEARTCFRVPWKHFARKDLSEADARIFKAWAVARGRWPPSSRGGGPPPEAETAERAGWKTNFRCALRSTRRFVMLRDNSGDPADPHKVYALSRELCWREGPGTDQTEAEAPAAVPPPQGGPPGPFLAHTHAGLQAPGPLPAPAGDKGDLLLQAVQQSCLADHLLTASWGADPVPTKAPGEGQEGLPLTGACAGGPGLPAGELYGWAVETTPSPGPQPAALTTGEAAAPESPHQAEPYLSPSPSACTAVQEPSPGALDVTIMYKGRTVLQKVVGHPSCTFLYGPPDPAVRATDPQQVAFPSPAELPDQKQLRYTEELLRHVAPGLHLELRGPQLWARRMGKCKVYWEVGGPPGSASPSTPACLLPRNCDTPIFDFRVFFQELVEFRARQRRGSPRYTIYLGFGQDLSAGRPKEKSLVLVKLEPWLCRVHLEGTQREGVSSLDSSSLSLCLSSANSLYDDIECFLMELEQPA

Study 1
Target: Prothrombin, mature alpha-thrombin (F2, Homo sapiens, UniProt P00734)
Method: aptamer microarray, sandwich
Molecule type: DNA with 2'F-ANA
Sample: in vitro
Tested at: 200 nM
Notes: whole 15-mer aptamer, many near background
Added: Cy3 exosite-II aptamer, 400 nM
Direction: higher = stronger binding
Oligonucleotide | mean fluorescence intensity
GGTTGGTGTGGTTGG (2'F-ANA at 2 3 4 6 12 15) | 766 a.u.
GGTTGGTGTGGTTGG (2'F-ANA at 3 4 6 9 10 11 12 15) | 253 a.u.
GGTTGGTGTGGTTGG (2'F-ANA at 1 3 4 10 12 13 15) | 76.6 a.u.

Study 2
Target: Sal-like protein 4, full length isoform A (SALL4, Homo sapiens, UniProt Q9UJQ4, residues 1-1053)
UniProt Q9UJQ4, sequence (whole entry, looked up): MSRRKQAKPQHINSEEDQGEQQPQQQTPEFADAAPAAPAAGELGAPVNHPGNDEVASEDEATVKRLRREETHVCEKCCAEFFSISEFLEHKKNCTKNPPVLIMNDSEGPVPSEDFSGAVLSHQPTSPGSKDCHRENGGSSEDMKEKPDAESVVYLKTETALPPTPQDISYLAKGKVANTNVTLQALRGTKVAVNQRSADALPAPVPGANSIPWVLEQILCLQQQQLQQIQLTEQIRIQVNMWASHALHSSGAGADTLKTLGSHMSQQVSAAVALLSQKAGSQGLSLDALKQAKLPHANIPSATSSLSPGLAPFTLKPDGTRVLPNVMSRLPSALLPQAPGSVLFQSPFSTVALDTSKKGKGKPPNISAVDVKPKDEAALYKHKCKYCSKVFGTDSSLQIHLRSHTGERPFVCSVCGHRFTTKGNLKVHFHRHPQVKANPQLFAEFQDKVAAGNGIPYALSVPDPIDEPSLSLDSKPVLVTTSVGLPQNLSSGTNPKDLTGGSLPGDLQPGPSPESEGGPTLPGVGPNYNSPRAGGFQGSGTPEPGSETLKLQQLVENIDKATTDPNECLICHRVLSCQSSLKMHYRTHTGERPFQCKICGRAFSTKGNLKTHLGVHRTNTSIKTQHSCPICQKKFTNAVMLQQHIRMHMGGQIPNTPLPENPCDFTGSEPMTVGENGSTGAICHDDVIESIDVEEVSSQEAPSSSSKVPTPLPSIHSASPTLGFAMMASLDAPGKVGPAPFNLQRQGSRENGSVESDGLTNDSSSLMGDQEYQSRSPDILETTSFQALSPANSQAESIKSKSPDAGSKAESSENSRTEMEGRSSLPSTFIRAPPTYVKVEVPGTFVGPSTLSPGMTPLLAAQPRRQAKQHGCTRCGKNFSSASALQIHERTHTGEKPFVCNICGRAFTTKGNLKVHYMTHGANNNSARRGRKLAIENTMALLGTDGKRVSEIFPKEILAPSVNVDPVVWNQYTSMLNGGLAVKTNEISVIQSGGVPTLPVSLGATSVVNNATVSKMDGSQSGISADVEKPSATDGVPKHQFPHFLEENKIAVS
Method: universal PBM
Molecule type: double-stranded DNA, one strand shown
Sample: in vitro
Tested at: 600 nM
Notes: 8-mer, flanks averaged, mean of replicates
Direction: higher = stronger binding
Oligonucleotide | E-score
AAGGATTC | -0.0814
AAGCACGA | -0.0094
ATAACGGG | 0.131

Further values, each from its own experiment
Substance | target | assay | test system | setting | scale | quantity | result
GCCTAGCACTCATAACTCATTTTCATACTGTGCTAGGTCTTGATTCGCTTGACGCTGCTG | Interferon regulatory factor 5, full length, phosphomimetic (IRF5, Homo sapiens, UniProt Q13568-2, residues 1-514, S451D/S453D/S456D/S462D) | protein-binding microarray | double-stranded DNA, one strand shown, in vitro | 940 nM top, 60-bp whole probe, added: salmon DNA 0.4 mg/ml | reference: random background probes, higher = stronger binding | fitted relative affinity | 0.966 z-score
PhoQ, residues 284 288 289 292 302 303 TTSMTC | PhoP, residues 12 14 15 18 19 DLLYY (Escherichia coli, UniProt P23836) | Sort-seq, item: YFP reporter | E. coli | PhoQ-PhoP variant library, added: 10 µM Mg2+ | reference: high Mg2+ state, higher = stronger signaling | fold induction | 1.04
GCCTAGCACGACGGTATCGACTATCGGGCCGTGCTAGTCTTGATTCGCTTGACGCTGCTG | Interferon regulatory factor 7, full length, phosphomimetic (IRF7, Homo sapiens, UniProt Q92985, residues 1-503, S471D/S472D/S475D/S476D/S477D/S483D/S484D/S487D) | protein-binding microarray | double-stranded DNA, one strand shown, in vitro | 2200 nM top, 60-bp whole probe, added: salmon DNA 0.4 mg/ml | reference: random background probes, higher = stronger binding | fitted relative affinity | -0.285 z-score

Excerpt of the above (study 1):
Oligonucleotide | mean fluorescence intensity
GGTTGGTGTGGTTGG (2'F-ANA at 2 3 4 6 12 15) | 766 a.u.
